Assay results collected from several papers.
Parts stem from different laboratories: compare values within a part only. Substitutions count along the parent as printed.
UniProt P34947, sequence (whole entry, looked up): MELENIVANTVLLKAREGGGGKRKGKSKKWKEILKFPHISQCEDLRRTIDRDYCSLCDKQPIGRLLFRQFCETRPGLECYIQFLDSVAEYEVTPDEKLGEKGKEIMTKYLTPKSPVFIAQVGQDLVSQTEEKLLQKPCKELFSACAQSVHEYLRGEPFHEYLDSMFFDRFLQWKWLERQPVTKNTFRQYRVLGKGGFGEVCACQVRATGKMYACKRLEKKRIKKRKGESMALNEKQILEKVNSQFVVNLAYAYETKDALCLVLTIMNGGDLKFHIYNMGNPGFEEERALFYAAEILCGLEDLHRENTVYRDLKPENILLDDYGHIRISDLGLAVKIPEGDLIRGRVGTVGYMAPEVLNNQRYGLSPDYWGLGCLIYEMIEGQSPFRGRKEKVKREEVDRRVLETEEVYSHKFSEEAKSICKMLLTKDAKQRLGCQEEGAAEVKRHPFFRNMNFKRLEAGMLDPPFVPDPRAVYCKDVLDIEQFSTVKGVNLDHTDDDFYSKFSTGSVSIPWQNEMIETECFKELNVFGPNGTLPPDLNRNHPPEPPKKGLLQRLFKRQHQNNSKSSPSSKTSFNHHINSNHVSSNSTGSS
UniProt P49840, sequence (whole entry, looked up): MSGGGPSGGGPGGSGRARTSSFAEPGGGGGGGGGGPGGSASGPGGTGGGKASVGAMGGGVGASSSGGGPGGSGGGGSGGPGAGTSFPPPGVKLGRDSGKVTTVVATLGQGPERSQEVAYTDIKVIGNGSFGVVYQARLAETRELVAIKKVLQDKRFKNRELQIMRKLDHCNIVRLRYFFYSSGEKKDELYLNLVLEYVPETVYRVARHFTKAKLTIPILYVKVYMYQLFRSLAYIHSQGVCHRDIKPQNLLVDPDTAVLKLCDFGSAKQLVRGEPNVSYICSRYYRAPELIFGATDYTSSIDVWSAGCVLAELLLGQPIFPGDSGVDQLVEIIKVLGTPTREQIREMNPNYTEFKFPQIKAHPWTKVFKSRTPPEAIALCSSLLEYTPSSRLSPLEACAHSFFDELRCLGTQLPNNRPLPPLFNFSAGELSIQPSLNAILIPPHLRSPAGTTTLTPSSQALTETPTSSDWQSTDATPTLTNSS
UniProt P62344, sequence (whole entry, looked up): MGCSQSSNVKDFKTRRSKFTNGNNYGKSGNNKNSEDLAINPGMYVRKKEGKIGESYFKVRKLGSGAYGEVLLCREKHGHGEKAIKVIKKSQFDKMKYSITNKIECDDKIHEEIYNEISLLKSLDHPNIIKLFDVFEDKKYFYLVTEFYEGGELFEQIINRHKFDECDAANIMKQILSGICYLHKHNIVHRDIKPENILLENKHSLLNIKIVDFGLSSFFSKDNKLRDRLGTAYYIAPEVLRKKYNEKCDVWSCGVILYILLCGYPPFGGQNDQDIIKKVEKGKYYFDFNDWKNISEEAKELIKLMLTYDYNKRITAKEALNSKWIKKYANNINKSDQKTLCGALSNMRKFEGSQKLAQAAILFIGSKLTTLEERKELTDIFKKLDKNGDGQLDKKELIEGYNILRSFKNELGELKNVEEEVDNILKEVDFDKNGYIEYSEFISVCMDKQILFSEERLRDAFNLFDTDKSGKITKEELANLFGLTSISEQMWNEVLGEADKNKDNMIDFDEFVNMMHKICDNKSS

Block 1
Target: CCNA1, cyclin fold, Cln2 fusion (human)
Method: yeast growth competition, sequencing
Matrix: yeast
Setting: weak parent motif
Relative to: not given
Reading: higher = stronger binding
Starting sequence: viral docking peptide; KGVKRKLFAEDSS; partner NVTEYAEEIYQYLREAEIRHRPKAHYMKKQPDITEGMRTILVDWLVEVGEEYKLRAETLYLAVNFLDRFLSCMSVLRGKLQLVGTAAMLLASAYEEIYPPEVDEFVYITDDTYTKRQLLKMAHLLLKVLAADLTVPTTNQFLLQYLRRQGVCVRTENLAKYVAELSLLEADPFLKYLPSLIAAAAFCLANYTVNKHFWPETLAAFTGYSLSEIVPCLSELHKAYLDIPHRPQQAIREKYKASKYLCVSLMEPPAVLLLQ
Change | normalised enrichment score
L7G | 0.245
R5C | 0.633
G2D | 1.27
D11C | 0.847
F8I | 0.377
S12K | 1.08
K6D | -0.186
K4H | 0.589

Block 2
Target: HLA class I histocompatibility antigen, C alpha chain, allele C*04:01 (Homo sapiens, UniProt P10321)
Read-out: peptide-MHC binding
Form: peptide
Tested at: concentration not given
Sequence | binding
ILFDRLPIA | inactive
ELFARSSDPR | inactive
CSDETTLYY | inactive
RRAALSGHL | inactive
RLYELIGSV | inactive
TVMDIISRK | inactive
MQFPGSVGF | inactive
RPRCAYLPF | inactive

Other studies, line by line
SMILES | target or system | assay | setting | how to read | quantity | value
C=C(C)CN1CC[C@]23c4c5ccc(O)c4O[C@H]2c2[nH]c4ccccc4c2C[C@@]3(O)C1C5.Cl.O | Sarcocystis neurona | parasite growth | concentration not given, secondary screen | – | inhibition | -42.1%
O=C1NC(=O)c2c1c1c3ccccc3n3c1c1c2c2ccccc2n1[C@H]1CC[C@@H]3O1 | Glycogen synthase kinase-3 alpha (GSK3A, Homo sapiens, UniProt P49840) | enzyme activity, inhibitor | 0.5 µM | relative to: control | remaining activity | 2.19%
Cc1cc2c(-c3ccco3)cnc(N[C@H]3CCN(C)C[C@@H]3C(=O)NC3CCCCC3)c2[nH]c1=O | 5-hydroxytryptamine receptor 1A (HTR1A, Homo sapiens, UniProt P08908) | ligand displacement | 10 µM | – | inhibition | 16.9%
CC(C)(C)c1cc(C=C(C#N)C#N)cc(Br)c1O | G protein-coupled receptor kinase 5 (GRK5, Homo sapiens, UniProt P34947) | enzyme activity, inhibitor | 0.5 µM | – | remaining activity | 108%
Cl.OC1CCCCC1N1CCC(c2ccccc2)CC1 (racemic) | Sarcocystis neurona | parasite growth | concentration not given, secondary screen | – | inhibition | -37.2%
O=C(N1CCS(=O)(=O)CC1)N1C[C@H](c2ccc(OC(F)(F)F)cc2)C[C@H](c2nc(C3CC3)no2)C1 | Calcium-dependent protein kinase 1 (CDPK1, Plasmodium falciparum, UniProt P62344) | cell-free assay, competition with immobilised ligand | 1 µM | – | remaining binding | 92%
